# Measurements of several laboratories.
# Lines come from different studies, so protocols differ. “And” joins repeats or separate records; there may be more than shown. ± marks the error that the study gave.
# UniProt O15244, sequence (whole entry, looked up): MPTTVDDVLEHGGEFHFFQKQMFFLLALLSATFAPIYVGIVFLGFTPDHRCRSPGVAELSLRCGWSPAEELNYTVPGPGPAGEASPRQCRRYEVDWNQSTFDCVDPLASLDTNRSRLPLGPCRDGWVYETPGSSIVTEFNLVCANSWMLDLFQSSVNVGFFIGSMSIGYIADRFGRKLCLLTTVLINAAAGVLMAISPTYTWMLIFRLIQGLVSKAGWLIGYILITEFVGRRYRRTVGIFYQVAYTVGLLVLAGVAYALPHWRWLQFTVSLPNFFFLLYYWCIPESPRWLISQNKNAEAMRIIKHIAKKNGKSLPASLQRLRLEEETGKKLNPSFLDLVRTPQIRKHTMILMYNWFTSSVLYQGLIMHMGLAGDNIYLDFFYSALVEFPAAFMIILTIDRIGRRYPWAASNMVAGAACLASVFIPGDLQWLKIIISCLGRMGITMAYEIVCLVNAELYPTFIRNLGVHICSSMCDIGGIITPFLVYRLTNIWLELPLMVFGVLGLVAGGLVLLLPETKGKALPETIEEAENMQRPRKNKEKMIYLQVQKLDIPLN
Structure (SMILES),tested on,assay,system,setting,how to read,endpoint,value
CNC(=O)c1c(N(C)N=O)ncn1C,Escherichia coli,"mutagenicity, Ames plate incorporation",WP2 uvrA pKM101,"150 µg/plate, without S9, methanol",,revertant colonies per plate,129 ± 12
O=C1c2c(O)c(=O)ccn2N([C@@H]2c3ccccc3SCc3c2ccc(F)c3F)[C@@H]2COCCN12,,,"BALB/c mouse, plasma","oral, 1.5 mg/kg baloxavir marboxil every 12 h, 24 h",,plasma concentration,2.31 ng/mL
Cc1ncc(OC[C@@]2(c3cccc(F)c3)C[C@H]2C(=O)Nc2ccc(F)cn2)c(C)n1,MDCK,,,"1 µM, 90 min, pH 6.5 apical, 7.4 basolateral, basolateral to apical",,mass recovery,103 ± 3%
CC(c1ccccc1)(c1ccc(O)cc1)c1ccc(O)cc1,HepG2 spheroids,annexin V-FITC/PI flow cytometry,,"1 µM, 24 h",,necrotic cells,7.54 ± 2.51%
COc1cc2c(Oc3ccc4[nH]c(C)cc4c3F)ccnc2cc1OCC1(N)CC1,,,paediatric recurrent refractory sarcoma,"concentration not given, whole group",,grade 3 Nausea,0%
CCc1ccc(CC/C=C/c2ccc3c(c2)C(=O)CC3)cc1,,,"Sprague-Dawley rat, female","oral, 450 mg/kg/day, 14 days",,Basophil percentage,0.33%
COCCN(CCOC)N=O,Salmonella typhimurium,"mutagenicity, Ames plate incorporation",TA98,"1500 µg/plate, 3 d, without S9, methanol",,revertant colonies per plate,29 ± 10
CC(C)CC(=O)OC[C@H]1O[C@@](C#N)(c2ccc3c(N)ncnn23)[C@H](O)[C@@H]1O,Caco-2,,,"0.9 µM, 2 h",,efflux ratio,2.88
Cc1c(Cl)c(=O)oc2cc(OCCCC[Se]C#N)ccc12,Caenorhabditis elegans,,"N2 Bristol, NGM with E. coli OP50","100 µM, 3 days",,developmental defects,5.72%
COc1cc2c(c(OC)c1OC)-c1ccc(OC)c(=O)cc1[C@@H](NC(C)=O)CC2,"SLC22A2 (Homo sapiens, UniProt O15244)","transport, inhibitor",transiently transfected cells,"100 µM, 10 (unit not given), with: metformin",,inhibition,2.7%
O=NN1CCN(C2CCCC2)CC1,Salmonella typhimurium,"mutagenicity, Ames plate incorporation",TA100,"150 µg/plate, 3 d, without S9, methanol",,revertant colonies per plate,137 ± 18
CCC1(c2ccccc2)C(=O)NC(=O)NC1=O,CYP2B6 human,inducer,hepatocytes lot HC3-31,750 µM,relative to: DMSO,relative enzyme activity,3.6
CN(C)CCCNc1nc(NC2CCN(Cc3ccccc3)CC2)c2ccccc2n1,MV4-11,,,10 µM,,cytotoxicity,100%
CC(C)C[C@H](NC(=O)[C@H](Cc1c[nH]cn1)NC(=O)[C@H](Cc1c[nH]cn1)NC(=O)[C@H](Cc1ccc(O)cc1)NC(=O)[C@@H](N)CS)C(=O)N[C@H](C(=O)N[C@@H](CC(C)C)C(=O)N[C@H](C(=O)N[C@H](C(=O)NCC(=O)NCC(=O)N[C@@H](CO)C(=O)O)C(C)C)[C@@H](C)O)C(C)C,Epstein-Barr virus,,"B-NDG humanized mouse, EBV-infected","20 mg/kg, day 42",,body weight,24.4 g and 21.7 g
CC[C@H](C)[C@H](NC(=O)[C@H](CCCCN)NC(=O)[C@H](CCCCN)NC(=O)CNC(=O)[C@H](CCCCN)NC(=O)[C@H](CC(C)C)NC(=O)[C@H](CCCCN)NC(=O)[C@H](CCCNC(=N)N)NC(=O)[C@@H](NC(=O)[C@H](CC(C)C)NC(=O)[C@H](CCCNC(=N)N)NC(=O)[C@@H](N)CCCNC(=N)N)[C@@H](C)CC)C(=O)N[C@@H](Cc1ccc(O)cc1)C(=O)N[C@@H](CC(C)C)C(=O)N[C@@H](Cc1ccc(O)cc1)C(=O)N[C@@H](Cc1ccccc1)C(=O)N[C@@H](CCCCN)C(=O)N[C@@H](CC(C)C)C(=O)N[C@@H](CCC(N)=O)C(=O)N[C@@H](CC(C)C)C(=O)N[C@@H](CC(C)C)C(=O)N[C@@H](CCCCN)C(=O)N[C@@H](CCCCN)C(N)=O,"Chymotrypsinogen A (Bos taurus, UniProt P00766)","substrate, HPLC",,"150 µM, pH 7.4, 37 °C, with: chymotrypsin 0.1 µg/mL",,time to near-complete degradation,18 to 20 h
Cc1cc(C(=O)NC(C)(C)COc2cccc3c2C(N)=NS(=O)(=O)N3)cc(C)n1,Salmonella typhimurium,"Ames test, initial",TA1537,"5000 µg/plate, with: rat liver S9",relative to: solvent control,revertant ratio,1.2
O=C(Nc1ccccc1)C1CCN(C(=O)Oc2cccnc2)CC1,,psychotropic effects VAS,healthy women,20 mg,"relative to: pre-dose baseline, direction not given",change in Surroundings score,0.1
C[C@]1(CO)Cc2ncn(-c3ccc(C#N)c(Cl)c3)c2C(=O)O1,,,human,80 mg single dose,,subjects with any TEAE,28.6%
O=[N+]([O-])c1ccc(N2CCC(NCCC(O)c3ccc(F)c4ccccc34)CC2)c(C(F)(F)F)c1 (centres unmarked),Salmonella typhimurium,"genotoxicity, SOS/umu test",TA1535/pSK1002,"0.004 mg/mL, 4 h, without S9, lower range",,induction factor,0.7
CCN(CC)C(=O)[C@@H]1C=C2c3cccc4[nH]cc(c34)C[C@H]2N(C)C1,,,"human, plasma","dose not given, after placebo pretreatment",,AUC,15 ng·h/mL
CO[C@H]1C[C@@H]2CC[C@@H](C)[C@@](O)(O2)C(=O)C(=O)N2CCCC[C@H]2C(=O)O[C@H]([C@H](C)C[C@@H]2CC[C@@H](OC(=O)NCCOCCOCCOCCOCCOCCOCCOCCOCCC(=O)N3CCc4cc(Cn5nc(-c6ccc7oc(N)nc7c6)c6c(N)ncnc65)ccc4C3)[C@H](OC)C2)C[C@@H](O)[C@H](C)/C=C(\C)[C@@H](O)[C@@H](OC)C(=O)[C@H](C)C[C@H](C)/C=C/C=C/C=C/1C,,,patients with advanced solid tumours,"intravenous, 16 mg weekly, grade 3 or higher",,AE leading to dose interruption,75%
OC(CCN1CC=C(c2ccc(F)cc2)CC1)c1ccc(F)c2ccccc12 (centres unmarked),Salmonella typhimurium,"genotoxicity, SOS/umu test",TA1535/pSK1002,"0.002 mg/mL, 4 h, without S9, lower range",,induction factor,0.8
CN(CC(C)(C)C)N=O,Escherichia coli,"mutagenicity, Ames plate incorporation",WP2 uvrA pKM101,"50 µg/plate, without S9, methanol",,revertant colonies per plate,106 ± 9

# A few entries again:
Structure (SMILES),tested on,assay,system,setting,how to read,endpoint,value
CO[C@H]1C[C@@H]2CC[C@@H](C)[C@@](O)(O2)C(=O)C(=O)N2CCCC[C@H]2C(=O)O[C@H]([C@H](C)C[C@@H]2CC[C@@H](OC(=O)NCCOCCOCCOCCOCCOCCOCCOCCOCCC(=O)N3CCc4cc(Cn5nc(-c6ccc7oc(N)nc7c6)c6c(N)ncnc65)ccc4C3)[C@H](OC)C2)C[C@@H](O)[C@H](C)/C=C(\C)[C@@H](O)[C@@H](OC)C(=O)[C@H](C)C[C@H](C)/C=C/C=C/C=C/1C,,,patients with advanced solid tumours,"intravenous, 16 mg weekly, grade 3 or higher",,AE leading to dose interruption,75%
OC(CCN1CC=C(c2ccc(F)cc2)CC1)c1ccc(F)c2ccccc12 (centres unmarked),Salmonella typhimurium,"genotoxicity, SOS/umu test",TA1535/pSK1002,"0.002 mg/mL, 4 h, without S9, lower range",,induction factor,0.8
CN(CC(C)(C)C)N=O,Escherichia coli,"mutagenicity, Ames plate incorporation",WP2 uvrA pKM101,"50 µg/plate, without S9, methanol",,revertant colonies per plate,106 ± 9
